Results pooled from the literature.
Protocols differ between the studies behind these lines. Values joined by “and” are separate records of one study, mostly repeats; a detail may differ. ± gives the spread as reported.
Dehaloperoxidase B ferric: Dehaloperoxidase B, ferric (Amphitrite ornata, UniProt Q9NAV7)
MT-CYB/UQCRFS1: MT-CYB/UQCRFS1 (Homo sapiens, UniProt P00156+P47985)
UniProt P00156, sequence (whole entry, looked up): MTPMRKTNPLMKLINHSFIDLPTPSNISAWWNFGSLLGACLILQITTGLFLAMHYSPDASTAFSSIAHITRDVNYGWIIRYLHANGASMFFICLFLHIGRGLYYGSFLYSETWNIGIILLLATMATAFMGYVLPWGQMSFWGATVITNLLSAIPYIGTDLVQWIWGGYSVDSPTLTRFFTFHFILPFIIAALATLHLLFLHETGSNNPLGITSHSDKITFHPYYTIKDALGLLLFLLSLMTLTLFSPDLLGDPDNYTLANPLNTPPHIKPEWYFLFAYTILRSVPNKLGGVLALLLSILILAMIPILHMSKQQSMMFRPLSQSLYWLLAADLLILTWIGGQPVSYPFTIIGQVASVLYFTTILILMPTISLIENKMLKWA
UniProt P47985, sequence (whole entry, looked up): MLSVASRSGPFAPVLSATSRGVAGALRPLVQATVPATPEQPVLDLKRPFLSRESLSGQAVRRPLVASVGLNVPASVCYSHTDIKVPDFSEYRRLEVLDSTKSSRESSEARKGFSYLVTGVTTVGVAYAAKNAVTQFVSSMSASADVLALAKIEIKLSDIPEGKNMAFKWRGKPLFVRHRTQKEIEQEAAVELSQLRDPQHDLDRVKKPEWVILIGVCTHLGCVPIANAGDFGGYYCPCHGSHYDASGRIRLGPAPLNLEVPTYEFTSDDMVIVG
T1: preQ1-III riboswitch (Faecalibacterium prausnitzii); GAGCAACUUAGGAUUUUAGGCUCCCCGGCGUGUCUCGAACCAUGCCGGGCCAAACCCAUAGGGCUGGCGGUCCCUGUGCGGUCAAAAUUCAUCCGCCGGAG
UniProt Q16774, sequence (whole entry, unmodified, looked up): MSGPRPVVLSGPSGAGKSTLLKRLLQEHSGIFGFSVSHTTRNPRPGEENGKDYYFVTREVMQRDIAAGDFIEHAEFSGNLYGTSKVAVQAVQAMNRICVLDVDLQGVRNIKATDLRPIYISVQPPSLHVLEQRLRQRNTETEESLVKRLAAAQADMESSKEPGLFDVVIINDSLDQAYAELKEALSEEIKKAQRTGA
UniProt P05164, sequence (whole entry, looked up): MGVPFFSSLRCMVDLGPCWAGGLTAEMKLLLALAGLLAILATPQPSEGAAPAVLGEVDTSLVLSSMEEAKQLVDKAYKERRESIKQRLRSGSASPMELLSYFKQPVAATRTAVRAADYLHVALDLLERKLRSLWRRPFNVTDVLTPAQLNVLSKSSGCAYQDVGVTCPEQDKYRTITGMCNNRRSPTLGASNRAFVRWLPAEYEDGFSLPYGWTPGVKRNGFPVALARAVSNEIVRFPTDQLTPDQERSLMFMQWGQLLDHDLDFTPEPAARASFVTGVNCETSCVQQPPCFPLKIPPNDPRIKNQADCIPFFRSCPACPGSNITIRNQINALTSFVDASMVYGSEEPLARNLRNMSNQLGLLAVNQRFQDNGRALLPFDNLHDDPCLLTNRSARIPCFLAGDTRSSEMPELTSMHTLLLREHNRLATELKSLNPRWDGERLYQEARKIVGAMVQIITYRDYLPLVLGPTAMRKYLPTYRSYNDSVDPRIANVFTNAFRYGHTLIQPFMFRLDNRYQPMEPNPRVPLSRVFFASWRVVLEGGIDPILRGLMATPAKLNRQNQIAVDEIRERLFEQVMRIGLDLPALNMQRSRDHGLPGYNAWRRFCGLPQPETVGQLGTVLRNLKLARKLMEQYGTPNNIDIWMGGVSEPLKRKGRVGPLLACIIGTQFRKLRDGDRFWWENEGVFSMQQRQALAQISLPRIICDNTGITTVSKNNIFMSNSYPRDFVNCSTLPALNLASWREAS
UniProt P63092, sequence (whole entry, looked up): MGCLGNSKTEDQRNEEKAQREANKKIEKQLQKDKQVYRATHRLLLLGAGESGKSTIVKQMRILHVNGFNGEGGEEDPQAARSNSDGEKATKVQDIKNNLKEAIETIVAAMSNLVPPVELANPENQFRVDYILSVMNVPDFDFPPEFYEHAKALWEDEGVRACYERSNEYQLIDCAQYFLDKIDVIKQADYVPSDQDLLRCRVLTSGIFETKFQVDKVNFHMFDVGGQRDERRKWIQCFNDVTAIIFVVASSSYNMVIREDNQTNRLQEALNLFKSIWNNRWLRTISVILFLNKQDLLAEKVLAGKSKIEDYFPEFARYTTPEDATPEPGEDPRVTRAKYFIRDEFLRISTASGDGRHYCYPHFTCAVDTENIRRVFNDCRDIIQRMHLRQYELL
UniProt P51575, sequence (whole entry, unmodified, looked up): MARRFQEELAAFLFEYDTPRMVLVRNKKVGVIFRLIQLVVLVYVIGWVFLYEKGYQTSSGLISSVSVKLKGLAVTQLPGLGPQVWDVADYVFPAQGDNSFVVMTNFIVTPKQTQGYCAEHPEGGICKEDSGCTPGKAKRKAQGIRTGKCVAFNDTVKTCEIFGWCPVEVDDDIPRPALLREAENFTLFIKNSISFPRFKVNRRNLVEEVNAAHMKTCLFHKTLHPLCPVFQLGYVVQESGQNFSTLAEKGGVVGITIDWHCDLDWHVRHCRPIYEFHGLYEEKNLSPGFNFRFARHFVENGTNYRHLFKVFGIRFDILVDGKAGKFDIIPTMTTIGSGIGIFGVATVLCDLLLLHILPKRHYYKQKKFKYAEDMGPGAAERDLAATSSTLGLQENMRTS
UniProt Q14145, sequence (whole entry, looked up): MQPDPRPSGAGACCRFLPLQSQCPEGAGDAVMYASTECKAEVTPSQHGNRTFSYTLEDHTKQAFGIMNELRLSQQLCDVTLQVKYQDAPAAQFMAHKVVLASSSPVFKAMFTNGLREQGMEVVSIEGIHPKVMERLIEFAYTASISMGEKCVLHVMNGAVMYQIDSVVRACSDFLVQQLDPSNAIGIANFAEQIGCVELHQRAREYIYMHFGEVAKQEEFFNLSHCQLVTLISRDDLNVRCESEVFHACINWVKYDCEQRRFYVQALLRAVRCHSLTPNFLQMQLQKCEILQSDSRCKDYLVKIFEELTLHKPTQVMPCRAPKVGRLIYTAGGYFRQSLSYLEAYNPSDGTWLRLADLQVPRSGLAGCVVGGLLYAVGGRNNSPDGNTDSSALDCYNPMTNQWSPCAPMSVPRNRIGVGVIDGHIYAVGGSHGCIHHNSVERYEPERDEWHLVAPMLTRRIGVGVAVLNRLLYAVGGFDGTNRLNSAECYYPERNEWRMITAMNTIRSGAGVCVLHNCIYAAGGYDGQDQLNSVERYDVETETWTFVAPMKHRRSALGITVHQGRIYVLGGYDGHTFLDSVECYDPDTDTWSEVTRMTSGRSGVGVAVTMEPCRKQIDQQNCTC
UniProt O43914, sequence (whole entry, looked up): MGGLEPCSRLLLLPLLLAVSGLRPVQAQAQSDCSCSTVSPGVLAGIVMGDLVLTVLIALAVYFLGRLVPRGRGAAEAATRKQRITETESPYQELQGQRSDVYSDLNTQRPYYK
UniProt P32247, sequence (whole entry, looked up): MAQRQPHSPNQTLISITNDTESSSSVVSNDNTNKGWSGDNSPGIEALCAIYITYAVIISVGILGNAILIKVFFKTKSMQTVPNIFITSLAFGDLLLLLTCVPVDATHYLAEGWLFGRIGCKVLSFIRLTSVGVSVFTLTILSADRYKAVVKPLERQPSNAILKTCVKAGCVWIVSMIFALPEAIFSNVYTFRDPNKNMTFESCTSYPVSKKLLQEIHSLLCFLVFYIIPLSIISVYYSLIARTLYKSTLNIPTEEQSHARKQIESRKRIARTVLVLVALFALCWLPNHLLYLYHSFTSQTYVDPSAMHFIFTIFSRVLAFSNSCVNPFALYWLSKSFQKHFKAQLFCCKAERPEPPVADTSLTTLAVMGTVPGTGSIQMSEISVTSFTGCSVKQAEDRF
UniProt Q4FL33, sequence (whole entry, looked up): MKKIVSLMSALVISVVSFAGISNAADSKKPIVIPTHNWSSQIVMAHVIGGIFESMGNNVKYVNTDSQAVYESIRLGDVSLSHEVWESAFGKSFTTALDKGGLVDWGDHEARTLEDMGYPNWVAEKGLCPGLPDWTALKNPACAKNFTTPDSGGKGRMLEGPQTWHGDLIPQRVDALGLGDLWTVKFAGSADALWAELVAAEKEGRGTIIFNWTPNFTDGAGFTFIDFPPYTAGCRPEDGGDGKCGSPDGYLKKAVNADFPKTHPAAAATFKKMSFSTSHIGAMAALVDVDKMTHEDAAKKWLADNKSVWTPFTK
UniProt P09874, sequence (whole entry, looked up): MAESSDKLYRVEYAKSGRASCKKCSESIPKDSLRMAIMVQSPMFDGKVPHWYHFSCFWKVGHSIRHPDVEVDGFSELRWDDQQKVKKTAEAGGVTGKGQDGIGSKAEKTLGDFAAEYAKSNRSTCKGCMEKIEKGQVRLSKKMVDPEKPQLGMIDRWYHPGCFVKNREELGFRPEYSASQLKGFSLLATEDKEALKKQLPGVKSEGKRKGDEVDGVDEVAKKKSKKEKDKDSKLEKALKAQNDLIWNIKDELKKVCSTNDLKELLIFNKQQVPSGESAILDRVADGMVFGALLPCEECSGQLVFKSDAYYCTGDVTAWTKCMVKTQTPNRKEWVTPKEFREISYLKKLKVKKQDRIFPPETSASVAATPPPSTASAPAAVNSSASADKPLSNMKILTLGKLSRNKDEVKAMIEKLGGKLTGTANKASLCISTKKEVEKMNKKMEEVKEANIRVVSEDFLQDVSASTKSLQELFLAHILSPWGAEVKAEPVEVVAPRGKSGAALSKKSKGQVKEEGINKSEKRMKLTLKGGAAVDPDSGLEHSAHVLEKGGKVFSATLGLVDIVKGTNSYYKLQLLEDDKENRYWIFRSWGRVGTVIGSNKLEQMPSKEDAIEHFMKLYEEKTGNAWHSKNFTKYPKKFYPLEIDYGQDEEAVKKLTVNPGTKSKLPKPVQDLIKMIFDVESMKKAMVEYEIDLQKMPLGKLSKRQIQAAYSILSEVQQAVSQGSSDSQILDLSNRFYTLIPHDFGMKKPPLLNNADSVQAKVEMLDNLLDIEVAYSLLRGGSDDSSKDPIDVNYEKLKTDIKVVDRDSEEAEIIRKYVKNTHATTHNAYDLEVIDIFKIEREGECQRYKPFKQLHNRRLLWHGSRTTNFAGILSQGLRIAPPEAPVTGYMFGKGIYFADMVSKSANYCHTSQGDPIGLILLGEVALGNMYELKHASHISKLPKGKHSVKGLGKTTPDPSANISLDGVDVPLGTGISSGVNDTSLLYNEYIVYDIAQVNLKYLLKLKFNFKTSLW

Structure (SMILES)	target	assay	test system	setting	how to read	endpoint	result
O=C1Nc2ccc(Br)cc2C1O (centres unmarked)	Dehaloperoxidase B ferric	product, HPLC	–	together with: 5-bromoindole 500 µM, H2O2 250 µM	–	share of total products	5.4%
O=C(c1cc(-c2ccc3c(c2)OCCO3)nc2ccccc12)N1CCC(Cc2ccccc2)CC1	Kelch-like ECH-associated protein 1, with NRF2 (Mus musculus, UniProt Q9Z2X8)	binding	–	concentration not given, biochemical	–	activity class	inactive
C[N+](C)(C)[O-]	Trimethylamine N-oxide-binding protein (tmoX, Pelagibacter ubique, UniProt Q4FL33)	binding, DSF	–	single replicate screen	–	thermal shift	18.6 °C
NC(=O)NOCCCCCCCCCCCC[P+](c1ccccc1)(c1ccccc1)c1ccccc1.O=C([O-])C(F)(F)F	MT-CYB/UQCRFS1	complex III-dependent respiration, Seahorse XF96	HCT-116	10 µM, 24 h	reference: control	oxygen consumption rate	23.6 ± 2.42%
CN1CCN(c2cc(-c3ccncc3)c(-c3ccc4ccccc4c3)nn2)CC1	Bombesin receptor subtype-3 (BRS3, Homo sapiens, UniProt P32247)	agonist, FLIPR	–	12.5 µM	–	activation	-2.5%
CCCCC[C@H](O)/C=C/[C@H]1C(=O)C[C@H](O)[C@@H]1C/C=C\CCCC(=O)O	Prostaglandin D2 receptor (PTGDR, Homo sapiens, UniProt Q13258, M112A)	agonist, ONE-GO BRET	–	0.1562 µM (156 nM)	reference: wild-type receptor maximum	Gs protein activation	87.1%
NC(=O)NOCCCCCCCCCCCCCC[P+](c1ccccc1)(c1ccccc1)c1ccccc1.O=C([O-])C(F)(F)F	MT-CYB/UQCRFS1	complex III-dependent respiration, Seahorse XF96	HCT-116	1.5 µM, 24 h	reference: control	oxygen consumption rate	62 ± 10.3%
CCCCC[C@H](O)/C=C/[C@H]1C(=O)C[C@H](O)[C@@H]1C/C=C\CCCC(=O)O	GNAS, with Gbeta and Ggamma (Homo sapiens, UniProt P63092)	modulator	–	100 µM, without A2AR	reference: Gs alone	GTP hydrolysis	83.8% and 73.7% and 82.9% and 75.4%
[H]/N=C(/N)NCC(=O)O	Sodium- and chloride-dependent taurine transporter (SLC6A6, Homo sapiens, UniProt P31641, G62A)	binding, microscale thermophoresis	–	125 µM, room temperature, together with: 50 nM labelled protein	higher = more binding	normalised MST signal	-0.0154
CCC1(O)CCCN(C(=O)c2ccc(-c3ccc(F)c(NC(=O)CCl)c3)cc2)C1 (centres unmarked)	DNA dC->dU-editing enzyme APOBEC-3B, C-terminal domain (Homo sapiens, UniProt Q9UH17)	covalent modifier, intact protein mass spectrometry, item: adduct +25721 Da	–	125 µM, 1 h, 5-fold molar excess	–	protein adduct	42%
NC(=O)NO	MT-CYB/UQCRFS1	complex III-dependent respiration, Seahorse XF96	HCT-116	400 µM, 24 h	reference: control	oxygen consumption rate	86.8 ± 7.03%
Cc1cc(CN=C(N)NC(N)=S)c(C)cc1CN=C(N)NC(N)=S	Protein lin-28 homolog A (Mus musculus, UniProt Q8K3Y3)	–	–	–	–	Hill slope	-2.3
O=CNc1ccc(Br)cc1C=O	Dehaloperoxidase B ferric	product, HPLC	–	together with: 5-bromoindole 500 µM, H2O2 250 µM	–	share of total products	0.6%
[Cl-].[K+]	GUK1 (Homo sapiens, UniProt Q16774)	enzyme activity, NADH-coupled	–	150 mM, enzyme 7.5 nM	–	initial reaction velocity	0.136 µM/s and 0.163 µM/s and 0.171 µM/s
Nc1ncnc2c1ncn2[C@@H]1O[C@H](COP(=O)(O)CP(=O)(O)OP(=O)(O)O)[C@@H](O)[C@H]1O	P2X purinoceptor 1 (P2RX1, Homo sapiens, UniProt P51575, F188L)	saturation binding	HEK293	103 nM	–	specific binding	6110 CCPM and 6710 CCPM
CCn1c(-c2nc3cc(C(=O)N4CCC[C@@H](N)C4)cc(OC)c3n2C)cc2cccnc21	Protein-arginine deiminase type-3 (PADI3, Homo sapiens, UniProt Q9ULW8)	mixed inhibitor	–	together with: BAEE substrate, 10 mM CaCl2	–	Ki'	9 ± 6.8 mM
NCc1c[nH]c2nc(N)[nH]c(=O)c12	T1, preQ1-III riboswitch (Faecalibacterium prausnitzii)	ITC	–	NaCl 100 mM, apparent, single-site fit	–	Kd	17.4 nM
CC(C)OCCn1c(=S)[nH]c(=O)c2[nH]ccc21	Myeloperoxidase (MPO, Homo sapiens, UniProt P05164)	inhibitor, cholesteryl ester hydroperoxide	–	0.3704 µM	reference: control	LDL lipid peroxidation	41.6% and 25.5% and 107% and 55.6%
O=C(O)/C=C/c1ccc(O)c(O)c1	Kelch-like ECH-associated protein 1 (KEAP1, Homo sapiens, UniProt Q14145)	native mass spectrometry	–	1:5 protein:compound ratio, 30 min	–	dimer abundance	increased
O=C(O)[C@@H]1CCCN1c1ncnc2[nH]cnc12 (racemic)	YTH domain-containing family protein 2 (YTHDF2, Homo sapiens, UniProt Q9Y5A9)	binding, affinity selection mass spectrometry	–	–	reference: other proteins in batch	log fold enrichment	0.121
CCOCc1nc(O)c(-c2nnc(Cc3ccc(Cl)cn3)o2)c(O)c1-c1c(OC)cccc1OC	Apelin receptor (APLNR, Homo sapiens, UniProt P35414)	binding	–	–	–	residence time	15.5 ± 2.49 min
CC(=O)c1n[nH]c2ccc(-c3cnc4ccc(N(C)C5CCOCC5)nn34)cc12	TYRO protein tyrosine kinase-binding protein (TYROBP, Homo sapiens, UniProt O43914)	inhibitor	split luciferase reporter cells	1 µM, after wash	reference: without wash	DAP12/DAP12 reporter signal	no effect
Nc1nc2c(ncn2[C@@H]2O[C@H](COP(=O)(O)O)[C@@H](O)[C@H]2O)c(=O)[nH]1	GUK1 (Homo sapiens, UniProt Q16774, T83A)	enzyme activity, NADH-coupled	–	7.812 µM	–	reaction rate	3.94 s⁻¹ and 3.24 s⁻¹ and 2.78 s⁻¹
NC(=O)c1ccc[n+]([C@@H]2O[C@H](COP(=O)([O-])OP(=O)(O)OC[C@H]3O[C@@H](n4cnc5c(NCCNC(=O)CCCCCNC(=O)CCCCCNC(=O)CCCC[C@@H]6SC[C@@H]7NC(=O)N[C@@H]76)ncnc54)[C@H](O)[C@@H]3O)[C@@H](O)[C@H]2O)c1	Poly [ADP-ribose] polymerase 1 (PARP1, Homo sapiens, UniProt P09874)	substrate, DELFIA auto-modification	–	–	–	apparent Km	31 µM
CC(=O)N[C@@H](C)C(=O)N[C@@H](CC(N)=O)C(=O)NCC(=O)N[C@@H](CC(N)=O)C(=O)N[C@@H](C)C(=O)N[C@@H](CC(N)=O)C(=O)N[C@@H](CCC(=O)O)C(=O)N[C@@H](CCC(=O)O)C(=O)N[C@@H](CC(N)=O)C(=O)NCC(=O)N[C@@H](CCC(=O)O)C(=O)N[C@@H](CCC(N)=O)C(=O)N[C@@H](CCC(=O)O)C(=O)N[C@@H](C)C(=O)N[C@@H](CC(=O)O)C(=O)N[C@@H](CC(N)=O)C(=O)N[C@@H](CCC(=O)O)C(=O)N[C@H](C(=O)N[C@@H](CC(=O)O)C(N)=O)C(C)C	Kelch-like ECH-associated protein 1, Kelch domain (KEAP1, Homo sapiens, UniProt Q14145)	ITC	–	concentration not given	–	binding stoichiometry	1.04
CCCNCC(O)COc1ccccc1C(=O)CCc1ccccc1 (centres unmarked)	PKD2L1 (Homo sapiens, UniProt Q9P0L9, F514A)	ion current, patch clamp	–	concentration not given	–	tail current	inhibited

For quick reference, copied from above:
Structure (SMILES)	target	assay	test system	setting	how to read	endpoint	result
CCn1c(-c2nc3cc(C(=O)N4CCC[C@@H](N)C4)cc(OC)c3n2C)cc2cccnc21	Protein-arginine deiminase type-3 (PADI3, Homo sapiens, UniProt Q9ULW8)	mixed inhibitor	–	together with: BAEE substrate, 10 mM CaCl2	–	Ki'	9 ± 6.8 mM
NC(=O)NO	MT-CYB/UQCRFS1	complex III-dependent respiration, Seahorse XF96	HCT-116	400 µM, 24 h	reference: control	oxygen consumption rate	86.8 ± 7.03%
Cc1cc(CN=C(N)NC(N)=S)c(C)cc1CN=C(N)NC(N)=S	Protein lin-28 homolog A (Mus musculus, UniProt Q8K3Y3)	–	–	–	–	Hill slope	-2.3
